Published values from different studies.
Compare with care: the assays were run in different laboratories. Several values in a cell are separate wells, animals, samples, runs or records. Numbers after ± are the reported error.

| SMILES | tested on | test | test system | setting | scale | quantity | value |
| --- | --- | --- | --- | --- | --- | --- | --- |
| O=C(O)CNC(=O)c1ccco1 |  | binding, MIDAS equilibrium dialysis LC-MS | A2AR-BRIL thermostabilized | concentration not given | reference: no-protein control | log2 fold change | -0.556 |
| O=C(C#Cc1cn(Cc2ccccc2)c(=O)[nH]c1=O)NCc1ccccc1 | MMP-1 | inhibitor, colorimetric |  | 20 µM |  | remaining MMP-1 activity | 93 ± 5% |
| O=CC[C@H](O)[C@H](O)CO |  | binding, MIDAS equilibrium dialysis LC-MS | A2AR-BRIL thermostabilized | concentration not given | reference: no-protein control | log2 fold change | -0.474 |
| O=C(/C=C/C=C/C=C/C1CCCCC1)NC1=C[C@@](O)(/C=C/C=C/C=C/C(=O)NC2=C(O)CCC2=O)[C@@H]2O[C@@H]2C1=O | Panc 04.03 | CellTiter-Glo |  | 78 h |  | GI50 | 24.4 µM |
| Nc1ncnc2c1ncn2C1CC(O)C(CO)O1 (stereo not shown) |  | binding, MIDAS equilibrium dialysis LC-MS | A2AR-BRIL thermostabilized | concentration not given | reference: no-protein control | log2 fold change | 0.0875 |
| CCn1cc(-c2cc(Cn3ccnc3)cc3c2CCN([C@H](c2cc(OC)ccn2)C2CC2)C3=O)c(C(F)(F)F)n1 | DOHH-2 | cell growth, inhibitor |  | 120 h |  | EC50 | 20.5 nM |
| NCc1[nH]cc(CCC(=O)O)c1CC(=O)O |  | binding, MIDAS equilibrium dialysis LC-MS | A2AR-BRIL thermostabilized | concentration not given | reference: no-protein control | log2 fold change | -0.03 |
| NC(=O)c1cnc2[nH]ccc2c1N[C@@H]1[C@@H]2CC3C[C@H]1C[C@@](O)(C3)C2 |  | flow cytometry, refers to: CD8+ naive T cells | Japanese healthy subjects, peripheral blood | oral, 30 mg twice daily, day 4 |  | change from baseline | -1.05% |
| N#Cc1ccc2c(c1)[C@H]1CCCN(C(=O)c3ccc4[nH]cnc4c3)[C@H]1C2 |  |  | T2DM patients with overweight or obesity, urine | oral, 360 mg, day 1, 0-24 h, multiple dosing, adjusted geometric mean | reference: baseline day -1, -24-0 h | total urinary corticosteroid excretion | 200% |
| COc1cnc2cccc(N3CCc4c(cc(Cn5ccnc5C)cc4-c4cn(C)nc4C(F)(F)F)C3=O)c2c1 | ZR-75-30 | cell growth, inhibitor |  | 120 h |  | EC50 | 11 nM |
| CSc1cc(Oc2ccnc3[nH]c(=O)cnc23)ccc1NC(=O)Nc1cc(C(C)(C)C)nn1-c1ccccc1 | patient-derived cell line | reverse phase protein array | human | 1 µM, 4 h | reference: DMSO | phosphorylated ribosomal protein S6 level | 0.74 |
| N[C@@H](CCC(=O)O)C(=O)O |  | binding, MIDAS equilibrium dialysis LC-MS | A2AR-BRIL thermostabilized | concentration not given | reference: no-protein control | log2 fold change | -0.103 |
| O=P1(C2CCCCC2)CCCCC1 | HaCaT | trypan blue |  | IC50, 72 h | reference: untreated | reduction of cell number | 10 to 20% |
| O=C(CO)[C@@H](O)[C@H](O)CO |  | binding, MIDAS equilibrium dialysis LC-MS | A2AR-BRIL thermostabilized | concentration not given | reference: no-protein control | log2 fold change | -0.254 |
| CC(C)n1ncc2c(C(=O)NCC3(C)CNC3)cc(C3CC3)nc21 | coxsackievirus A16 |  | RD | 15 µM |  | cell protection | 101% and 99.2% |
| OC(CCN1CCCCC1)(c1ccccc1)C1CC2C=CC1C2 (stereo not shown) |  | resting-state EEG | healthy elderly humans | oral, 2 mg, eyes open, LS mean | reference: baseline | change, EEG Delta power, in Fz-Cz | 20.3% |
| CCn1cc(-c2cc(Cn3ccoc3=N)cc3c2CCN([C@@H](C)c2cc(OC)ccn2)C3=O)c(C(F)(F)F)n1 | SU-DHL-6 | cell growth, inhibitor |  | 120 h |  | EC50 | 593 nM |
| Nc1nc(-c2ccccc2)nc2[nH]nc(Nc3ccc(C(F)(F)F)cc3)c12 | coxsackievirus B3 |  | 31-1-93, NMRI mice, CVB3 chronic myocarditis | oral, 100 mg/kg twice daily, day 8, dosed days 3 to 10, score scale 0 to 7 | direction not given | clinical score | 1.1 |
| CC(C)C[C@H](N)C(=O)O |  | binding, MIDAS equilibrium dialysis LC-MS | A2AR-BRIL thermostabilized | concentration not given | reference: no-protein control | log2 fold change | -0.14 |
| Cn1cc(-c2ccc(-c3cncc(Cl)c3N3CCC4(CCNC4=O)CC3)cc2)cn1 | COLO 205 | gene expression, microarray, refers to: FLOT1 mRNA |  | concentration not given, 6 h | reference: untreated cells | log2 fold change | 1.12 |
| COC(C)(C)C(=O)N1CCC[C@H](C(=O)NCc2nc(-c3ccccc3)cs2)C1 | Plasmodium falciparum | SYBR Green growth | asexual blood-stage parasites, 3D7 | 72 h |  | EC50 | > 5000 nM |
| NCCOP(=O)(O)OP(=O)(O)OC[C@H]1O[C@@H](n2ccc(N)nc2=O)[C@H](O)[C@@H]1O |  | binding, MIDAS equilibrium dialysis LC-MS | A2AR-BRIL thermostabilized | concentration not given | reference: no-protein control | log2 fold change | -0.245 |
| CC(C)NCC(O)c1ccc(O)c(O)c1 (stereo not shown) |  |  | ventricular cardiomyocytes, C57BL/6 mouse | dose not given, 0.764 s |  | sarcomere length | 1.72 µm |
| CCONC(=O)N1CCC[C@H](C(=O)NCc2nc(-c3ccc(C#N)cc3)cs2)C1 | Plasmodium falciparum | SYBR Green growth | asexual blood-stage parasites, 3D7 | 72 h |  | EC50 | 14 ± 2.6 nM |
| CC[S+]([O-])c1nc(-c2ccccc2)cc(C(F)(F)F)n1 (stereo not shown) | transportin-1/2 | FUS nuclear import, high content imaging | HeLa Kyoto reporter | 15.8 µM, 2 h |  | cells with nuclear reporter | 94.4% and 97.2% |
| COCC(=O)N1CCC[C@H](C(=O)NCc2nc(-c3cncnc3)cs2)C1 | Plasmodium falciparum | SYBR Green growth | asexual blood-stage parasites, 3D7 | 72 h |  | EC50 | 640 ± 260 nM |
| O=C(O)CNC(=O)Cc1ccccc1 |  |  | ventricular cardiomyocytes, C57BL/6 mouse | dose not given, 0.696 s |  | sarcomere length | 1.72 µm |
| CCS(=O)(=O)c1nc(C2CC2)cc(C(F)(F)F)n1 | transportin-1/2 | FUS nuclear import, high content imaging | HeLa Kyoto reporter | 5 µM, 2 h |  | cells with nuclear reporter | 94.7% and 94% |
